Experimental data from different studies.
Parts stem from different laboratories: compare values within a part only. Changes are numbered by the printed parent chain.

Sample 1 — technique: protein binding microarray; molecule type: double-stranded DNA, one strand shown; medium: in vitro; concentration: not given; baseline: not given; reading: higher = stronger binding
Target: Histone acetyltransferase KAT6A, winged helix 2, GST fusion (KAT6A, Homo sapiens, UniProt Q92794, residues 85-181)
Notes: 8-mer, flanks averaged, mean of 2 arrays, mostly near background
Target sequence (chain): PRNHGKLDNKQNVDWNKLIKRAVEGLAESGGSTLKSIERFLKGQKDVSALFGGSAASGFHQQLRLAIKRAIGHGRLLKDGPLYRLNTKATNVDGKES
Strand	E-score
CACGCTAA	-0.177
GTTCGTGA	-0.000155
GCCAGCAA	0.113
AATAATCC	0.022
CTTTAGGA	-0.0467
AGCGAAAA	0.196
ATAATAGA	-0.085
ACGGATAG	0.0413

Sample 2 — technique: RNA Bind-n-Seq; molecule type: RNA; medium: in vitro; concentration: 365 nM; baseline: no-protein control; reading: higher = stronger binding
Target: RNA binding protein fox-1 homolog 2, RRM domain, GST-SBP tag (RBFOX2, Homo sapiens, UniProt O43251-10, residues 100-194)
Notes: natural RNA segment, single round, ends assumed
Construct (chain): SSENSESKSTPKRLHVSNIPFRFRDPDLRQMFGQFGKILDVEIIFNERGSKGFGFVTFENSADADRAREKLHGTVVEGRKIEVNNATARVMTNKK
Strand	RBNS enrichment (R)
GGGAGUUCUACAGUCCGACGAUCGUUUUUAGUUGCUAUCUGUAGCGUGACAACGGGCAGCUAUAUUUACAGGCUUUCAUUCUAUCUUAUUAACAUAGAGUCUUAUGGAACAAUUUGCCAUGAGUAUAGUUGAAUGGAAUUCUCGGGUGCCAA	0.506
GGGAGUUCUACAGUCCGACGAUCUAACUUGUGGCAAGAGGGAGGCAGAGAAUUGACUAGCUCUGACACCUAUUAAAGACAAAACUGGCUGCUUCUGAGCUCUUUCAGGCUGUACUUUGUGCUGUGCCAGUGGCUGGAAUUCUCGGGUGCCAA	0.554
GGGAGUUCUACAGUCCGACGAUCUCCCAGUAGGCUUUUACCAUUAGCAUAAUUUUGUGUUGUACAAUUAAGUUACAAUUACAUCUCUAAUUUUGGAUAAUAUUCAUUGGUUAACAAUAAAGUGACAAAAGCUCUGGAAUUCUCGGGUGCCAA	0.602
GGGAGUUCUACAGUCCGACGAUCGGGUCCAUAGGGAGGGACCUCAUGGGGCUGUCACAUCCUAGCAACCUUCUUAGCCUCCUUCCUUCCUUCCACACGGCCCAGAGGCCAGCUCGGCCCCACCCAGAGGGCCUUGGAAUUCUCGGGUGCCAA	1.77
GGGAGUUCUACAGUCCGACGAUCAUACAGAUGUUUGGUUUGGCCAGCUGACAAGGAAGCAGUCCAUAGAAGAGAUGGGCUCAGCCUGAACUAGUUGUCUGUGAAAAGACUCCUAACGUUGCGUUAACAUAUUUUGGAAUUCUCGGGUGCCAA	0.626
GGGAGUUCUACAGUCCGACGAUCAACCCAAACCCUGCGGUACCCACCCCGGUAGUGGCCAGUCAUCUUGUGCUGACAUUAGCAUUCACCCUGUUGGAUAGGUUAGCUUCCCGAGACAUCUCCUUCCACCAUUCUGGAAUUCUCGGGUGCCAA	0.45
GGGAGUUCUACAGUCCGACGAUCAAGAAUGUCGCCAAGGAAGAAACCUCACGCCAUGCUGUAGUGUUUCCUGUAAUCACACGAGCACAUUUAUAUAUGCAGUUUCCCAUGGAUAGGCGUGUGACCCUGGUUGAUGGAAUUCUCGGGUGCCAA	0.295
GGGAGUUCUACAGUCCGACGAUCCUGGCCUUUCGAGCUUCAGAGAUGGGAGUCUGAUGGCAGUGUCCUGCUUGGAGAAGGCCCAGGGGUGUCCUCAUGGGGACUUCUGGAACAGACAGCCUUCUGACCCCUGUUGGAAUUCUCGGGUGCCAA	0.209

Sample 3 — target: CCNE2, cyclin fold, Cln2 fusion (human); technique: yeast growth competition, sequencing; medium: yeast; notes: strong parent motif; baseline: not given; reading: higher = stronger binding
Starting sequence: SCAPER docking peptide (human); SNARRSLNFGGST
Variant	normalised enrichment score
T13M	1.48
R5S	0.442
F9T	0.243
L7Q	0.48
S6P	-0.101

Further values, each from its own experiment
Substance	target	assay	test system	conditions	how to read	measurement	result
PhoQ, residues 284 288 289 292 302 303 NLAAMI	PhoP, residues 12 14 15 18 19 NQGLL (Escherichia coli, UniProt P23836)	Sort-seq, measured: YFP reporter	E. coli	PhoQ-PhoP variant library, with: 10 µM Mg2+	baseline: high Mg2+ state, higher = stronger signaling	fold induction	4.85
